Published values gathered from unrelated publications.
Compare with care: the assays were run in different laboratories.
Organism: Mycobacterium tuberculosis

O=C(O)Cc1cc(I)c(Oc2cc(I)c(O)c(I)c2)c(I)c1 — MIC (microbial growth; H37RV; 10 days): 22 µg/mL
CO[C@H]1/C=C/O[C@@]2(C)Oc3c(C)c(O)c4c(O)c(c(/C=N/N5CCN(C)CC5)c(O)c4c3C2=O)NC(=O)/C(C)=C\C=C\[C@H](C)[C@H](O)[C@@H](C)[C@@H](O)[C@@H](C)[C@H](OC(C)=O)[C@@H]1C — MIC (microplate alamar blue; H37Rv (ATCC 27294), 7H12 medium; replicating bacteria, range): 0.03 to 0.05 µM
Nc1ncnc2c1ncn2[C@@H]1O[C@H](COS(=O)(=O)NC(=O)CCCCCCCCCCOc2cccc(C(F)(F)F)c2)[C@@H](O)[C@H]1O — MIC (broth microdilution; H37Rv, GAST medium; MIC at >99% growth inhibition): 25 to 50 µM
CC(C)c1ccc(-c2ccnc(CNC3CCCCCCC3)c2)cc1 — MIC (microbial growth, resazurin; H37RV): 1 to 2 µg/mL
CCCCCCCCCC[C@@H](C)C(=O)NS(=O)(=O)OC[C@H]1O[C@@H](n2cnc3c(N)ncnc32)[C@H](O)[C@@H]1O — MIC (broth microdilution; H37Rv, GAST medium; MIC at >99% growth inhibition): 12.5 to 25 µM
C[C@H](Oc1cccc(Cl)c1Cl)C(=O)Nc1ccc2oc(-c3ccc(C(=O)NO)cc3)nc2c1 — MIC (H37Rv ATCC 27294, GAST/Fe medium without guanine; 1 week): ≤ 5 µM
CC1CCN(Cc2cc(-c3ccc(C(C)C)cc3)ccn2)CC1 — MIC (microbial growth, resazurin; H37RV): 1 to 2 µg/mL
Nc1ncnc2c1ncn2[C@@H]1O[C@H](COS(=O)(=O)NC(=O)CCCCCCCCCCOc2cccc(Cl)c2)[C@@H](O)[C@H]1O — MIC (broth microdilution; H37Rv, GAST medium; MIC at >99% growth inhibition): 25 to 50 µM
COc1cccc(NCc2ccc(Oc3ccccn3)cc2)c1 — MIC (H37Rv, 7H9/ADC/Tween medium; 1 weeks): > 50 µM
CCOC(=O)COc1cccc(-c2nc3cc(NC(=O)[C@H](C)Oc4cccc(Cl)c4Cl)ccc3o2)c1 — MIC (H37Rv ATCC 27294, GAST/Fe and 7H9/ADC/Tween; 168 h): ≤ 5 µM
Fc1ccc(NCc2ccc(Oc3ccccn3)cc2)cc1 — MIC (H37Rv, GAST-Fe medium; 2 weeks, pH 6.6): 20 to 40 µM
CCCCCCCCC/C=C/C(=O)NS(=O)(=O)OC[C@H]1O[C@@H](n2cnc3c(N)ncnc32)[C@H](O)[C@@H]1O — MIC (broth microdilution; H37Rv, GAST medium; MIC at >99% growth inhibition): 50 to 100 µM
O=C(OCc1ccccc1)[C@@H]1COC(c2ccccc2)=N1 — MIC (microplate alamar blue; H37Rv (ATCC 27294), GAS medium; replicating bacteria, range): 2.9 to 6.2 µM
CC1CCN(Cc2cc(-c3ccc4ccccc4c3)ccn2)CC1 — MIC (microbial growth, resazurin; H37RV): 2 to 4 µg/mL
c1ccc(NCc2ccc(Oc3ccccn3)cc2)cc1 — MIC (H37Rv, GAST-Fe medium; 2 weeks, pH 6.6): 20 to 40 µM
O=C(OCc1ccccc1)c1coc(-c2ccccc2)n1 — MIC (microplate alamar blue; H37Rv ATCC 27294; GAS medium, replicating): 6 µM
O=S1(=O)CCN(c2n[n+]([O-])c3cc4c(cc3[n+]2[O-])CCC4)CC1 — MIC (resazurin microplate; H37Rv): 2.5 to 5 µg/mL
COc1ccc(-c2nc3cc(NC(=O)[C@H](C)Oc4cccc(F)c4F)ccc3o2)cc1 — MIC (H37Rv ATCC 27294, GAST/Fe and 7H9/ADC/Tween; 168 h): ≤ 5 µM
O=C(OCc1ccccc1)c1cc(-c2ccccc2)on1 — MIC (microplate alamar blue; H37Rv (ATCC 27294), GAS medium; replicating bacteria, range): 1.1 to 2.9 µM
Fc1ccccc1NCc1ccc(Oc2ccccn2)cc1 — MIC (H37Rv, GAST-Fe medium; 2 weeks, pH 6.6): 43 µM
Nc1ncnc2c1ncn2[C@@H]1O[C@H](COS(=O)(=O)NC(=O)CCCCCCCCCCC(=O)O)[C@@H](O)[C@H]1O — MIC (broth microdilution; H37Rv, GAST medium; MIC at >99% growth inhibition): 25 to 50 µM
C[C@H](Oc1cccc(F)c1F)C(=O)Nc1ccc2oc(-c3ccncc3)nc2c1 — MIC (H37Rv ATCC 27294, GAST/Fe and 7H9/ADC/Tween; 168 h): ≤ 5 µM
CCCCCCc1ccc(Oc2ccccc2F)c(O)c1 — MIC (microbial growth, resazurin): 1.56 µg/mL
c1ccc(-c2ccc(-c3ccnc(CN4CCC5(CCCCC5)CC4)c3)cc2)cc1 — MIC (microbial growth, resazurin; H37RV): 0.0156 µg/mL
C[C@H](Nc1cccc(F)c1F)C(=O)Nc1ccc2oc(-c3ccc(C#N)cc3)nc2c1 — MIC (microbial growth; ATCC27294 H37RV; 7 days): 1 µM
Cc1ccn2c(C(=O)NCc3ccccc3)c(-c3ccccc3)nc2c1 — MIC (microplate alamar blue; H37Rv (ATCC 27294), 7H12 medium; replicating bacteria, range): 2.8 to 3 µM
COc1ccc(NCc2ccc(Oc3ccccn3)cc2)cc1 — MIC (H37Rv, 7H9/ADC/Tween medium; 2 weeks): 82 µM
O=C(OCc1ccccc1)c1csc(-c2ccccc2)n1 — MIC (microplate alamar blue; H37Rv (ATCC 27294), GAS medium; replicating bacteria, range): 1.5 to 8.5 µM
CCOC(=O)COc1ccc(-c2nc3cc(NC(=O)[C@H](C)Oc4cccc(Cl)c4Cl)ccc3o2)cc1 — MIC (microbial growth; ATCC27294 H37RV; 7 days): 0.2 µM
Cc1cccc(NCc2ccc(Oc3ccccn3)cc2)c1 — MIC (H37Rv, 7H9/ADC/Tween medium; 1 weeks): > 100 µM
CCCCCCCC(=O)NS(=O)(=O)OC[C@H]1O[C@@H](n2cnc3c(N)ncnc32)[C@H](O)[C@@H]1O — MIC (broth microdilution; H37Rv, GAST medium; MIC at >99% growth inhibition): 12.5 to 25 µM
CC(C)c1ccc(-c2ccnc(CNC3C4CC5CC(C4)CC3C5)c2)cc1 (stereo not shown) — MIC (microbial growth, resazurin; H37RV): 1 to 2 µg/mL
CCCCCCCCCCCC(=O)NS(=O)(=O)OC[C@H]1O[C@@H](n2cnc3c(N)ncnc32)[C@H](O)[C@@H]1O — MIC (broth microdilution; H37Rv, GAST medium; MIC at >99% growth inhibition): 0.19 to 0.78 µM
COc1ccc(-c2ccc(C(=O)OCc3ccccc3)cn2)cc1 — MIC (microplate alamar blue; H37Rv (ATCC 27294), GAS medium; replicating bacteria, range): 1.5 to 2.5 µM
Clc1ccccc1NCc1ccc(Oc2ccccn2)cc1 — MIC (H37Rv, GAST-Fe medium; 2 weeks, pH 6.6): 20 to 40 µM
C[C@H](Oc1cccc(F)c1F)C(=O)Nc1ccc2oc(-c3ccc(C#N)cc3)nc2c1 — MIC (H37Rv ATCC 27294, GAST/Fe and 7H9/ADC/Tween; 168 h): ≤ 5 µM
Cc1ccccc1NCc1ccc(Oc2ccccn2)cc1 — MIC (H37Rv, GAST-Fe medium; 2 weeks, pH 6.6): 43 µM
CC(C)c1ccc(-c2ccnc(CN3CCC4(CC3)OCCCO4)c2)cc1 — MIC (microbial growth, resazurin; H37RV): 1 to 2 µg/mL
Nc1ncnc2c1ncn2[C@@H]1O[C@H](COS(=O)(=O)NC(=O)CCCCCCCCCCOc2ccc(Cl)cc2)[C@@H](O)[C@H]1O — MIC (broth microdilution; H37Rv, GAST medium; MIC at >99% growth inhibition): 6.25 to 12.5 µM
Cc1cc2nc(C)c(C(=O)OCc3ccccc3)n2c(C)n1 — MIC (microplate alamar blue; H37Rv (ATCC 27294), 7H12 medium; replicating bacteria, range): 5 to 5.9 µM
